Experimental data from different studies.
Each line is one published result; not all experiments were run side by side. Numbers after ± are the reported error. ≈ marks a conversion by molar mass, not a printed value.
Organism: Mycobacterium tuberculosis

| SMILES | test | test system | setting | scale | endpoint | result |
| --- | --- | --- | --- | --- | --- | --- |
| CN1CCN(c2ccc(Nc3nccc(-c4ccnc(Cl)c4)n3)cc2C(F)(F)F)CC1 | – | H37Rv auxotroph | – | – | MIC | 50 µM |
| CCNC(=O)c1cc(C)ccc1OCCc1cc(F)cc(F)c1 | – | H37Rv-LP | – | relative to: HepG2 CC50 over Mtb IC90 | selectivity index | 33 |
| O=c1c2cc(Cl)ccc2[nH]c(=S)n1Cc1cc[nH]n1 | – | PptT conditional knockdown | – | – | MIC90 | 29.2 µM |
| CCNC(=O)c1sc(C)nc1OCCc1cc(F)cc(F)c1 | growth | H37Rv-LP | 120 h | – | IC90 | 29 ± 8 µM |
| O=C(NC12CC3CC(CC(C3)C1)C2)c1cc(-c2ccc(F)nc2F)c[nH]1 | – | H37Rv, mice | oral, 100 mg/kg, 504 h | relative to: untreated | lung CFU log reduction | ~1 log CFU |
| O=c1c2cc(Cl)ccc2[nH]c(=S)n1Cc1ccccc1 | – | PptT conditional knockdown | – | – | MIC90 | > 100 µM |
| NNC(=O)c1ccncc1 | – | W4 | 120 h | – | MIC50 | < 0.005 µM |
| COc1ccc(NNC(=O)c2c(N)cccc2F)cc1 | – | H37Rv | 336 h | – | MIC99 | 1.56 to 2.84 µM (≈ 0.429 to 0.782 µg/mL) |
| COC(=O)C(=O)[C@H](C[C@@H]1CCNC1=O)NC(=O)[C@H](CCCCN)NC(=O)[C@H](Cc1ccccc1)NC(=O)OCc1ccccc1 | bacterial growth | THP-1 macrophages, Mtb-lux | 72 h | – | IC50 | 9.6 ± 2.7 µM |
| O=C(OCc1cc2[nH]c(=S)n(Cc3cncnc3)c(=O)c2cc1Cl)Oc1ccccc1 | – | PptT conditional knockdown | – | – | MIC90 | 0.33 µM |
| Cc1ncc([N+](=O)[O-])n1CCO | – | H37Rv | 10 µg/mL | – | activity | active |
| [H]/N=C(/N)N[C@H]1[C@H](O)[C@@H](O)[C@H](O[C@@H]2O[C@@H](C)[C@](O)(C=O)[C@H]2O[C@@H]2O[C@@H](CO)[C@H](O)[C@@H](O)[C@@H]2NC)[C@@H](N/C(N)=N\[H])[C@@H]1O | time-kill | H37Rv | concentration not given, 7 days | – | kill rate | 0.17 h⁻¹ |
| C#Cc1ccc(OCCc2cccc(F)c2)c(C(N)=O)c1 | – | H37Rv-LP | – | relative to: HepG2 CC50 over Mtb IC90 | selectivity index | 3 |
| Cc1nc2ccc(CN(C)c3ccc(C(=O)N[C@@H](CCC(=O)O)C(=O)O)s3)cc2c(=O)[nH]1 | bacterial growth, inhibitor | H37Rv wild type | – | – | MIC90 | > 100 µM |
| COc1ccc(-c2cc(C(F)(F)F)c3c(N)c(C(=O)Nc4cccc(C)c4C)sc3n2)cc1OC | growth inhibition | H37Rv LepB under-expressing | – | – | IC50 | > 100 µM |
| C[C@H]1CC[C@H](NC(=O)CNc2ccc(Cl)cc2)CC1 | – | H37Rv mc2 6206 | concentration not given, 168 h | – | activity | inactive |
| Cc1cccc(NC(=O)c2sc3nc(-c4ccc5c(c4)OCO5)cc(C(F)(F)F)c3c2N)c1C | growth inhibition | H37Rv LepB under-expressing | – | – | IC50 | 0.48 ± 0.06 µM |
| NC(=O)c1cc(Br)ccc1OCCc1cccc(F)c1 | growth | H37Rv-LP | 120 h | – | IC90 | 5.5 ± 1.7 µM |
| Cc1cccc(CNC(=O)c2sc3nc(-c4ccc5c(c4)OCO5)cc(C(F)(F)F)c3c2N)c1C | growth inhibition | H37Rv LepB under-expressing | – | – | IC50 | 1.1 ± 1 µM |
| c1ccc(-c2nc3cc(Nc4nccn4-c4cc(NC5CCCC5)ncn4)ccc3[nH]2)cc1 | – | W4 | 120 h | – | MIC50 | 0.06 µM (≈ 0.0262 µg/mL) |
| O=c1c2cc(Cl)ccc2[nH]c(=S)n1Cc1cncnc1 | – | PptT conditional knockdown | – | – | MIC90 | 0.32 µM |
| COc1ccc(-c2cc(C(F)(F)F)c3c(N)c(C(=O)NCC45CC6CC(CC(C6)C4)C5)sc3n2)cc1 | – | H37Rv wild type | – | relative to: HepG2 IC50 over M. tuberculosis IC90 | selectivity index | > 71 |
| NCC[C@H](O)C(=O)N[C@@H]1C[C@H](N)[C@@H](O[C@H]2O[C@H](CN)[C@@H](O)[C@H](O)[C@H]2O)[C@H](O)[C@H]1O[C@H]1O[C@H](CO)[C@@H](O)[C@H](N)[C@H]1O | resazurin reduction | H37Rv mc2-6206 wild type | – | – | MIC80 | 0.85 µM (≈ 0.498 µg/mL) |
| COc1ccc(-c2cc(C(F)(F)F)c3c(N)c(C(=O)NC4COC4)sc3n2)cc1 | growth inhibition | H37Rv LepB under-expressing | – | – | IC50 | > 100 µM |

| SMILES | test | test system | setting | scale | endpoint | result |
| --- | --- | --- | --- | --- | --- | --- |
| CCCCCCC#Cc1cncc(-c2nnc(SCc3cc([N+](=O)[O-])cc([N+](=O)[O-])c3)n2C)c1 | bacterial growth | Erdman wild type | – | – | IC50 | 0.34 µM |
| Cc1noc(C)c1-c1ccc(OCCc2cccc(F)c2)c(C(N)=O)c1 | – | H37Rv-LP | – | relative to: HepG2 CC50 over Mtb IC90 | selectivity index | > 9 |
| COc1ccc(-c2cc(C(F)(F)F)c3c(N)c(C(=O)N4CC(OC)C4)sc3n2)cc1 | – | H37Rv wild type | 120 h | – | IC90 | inactive |
| Nc1cccc(F)c1C(=O)NNc1cccc(Cl)c1 | – | H37Rv | 336 h | – | MIC99 | 1.56 to 2.84 µM (≈ 0.436 to 0.794 µg/mL) |
| NC(=S)c1ccc(Cn2c(=S)[nH]c3ccc(Cl)cc3c2=O)cn1 | – | PptT conditional knockdown | – | – | MIC90 | 0.83 µM |
| CO[C@H]1/C=C/O[C@@]2(C)Oc3c(C)c(O)c4c(O)c(c(/C=N/N5CCN(C)CC5)c(O)c4c3C2=O)NC(=O)/C(C)=C\C=C\[C@H](C)[C@H](O)[C@@H](C)[C@@H](O)[C@@H](C)[C@H](OC(C)=O)[C@@H]1C | resazurin reduction | H37Rv mc2-6206 wild type | – | – | MIC80 | 0.076 µM (≈ 0.0625 µg/mL) |
| CN1CCN(c2ccc(Nc3nccc(-c4ccncc4)n3)cc2C(F)(F)F)CC1 | – | H37Rv auxotroph | – | – | MIC | > 100 µM |
| Nc1cccc(F)c1C(=O)NNc1cccc(F)c1 | – | H37Rv | 336 h | – | MIC99 | 1.56 to 2.84 µM (≈ 0.411 to 0.748 µg/mL) |
| CO[C@H]1[C@H](O[C@H]([C@H]2O[C@@H](n3ccc(=O)[nH]c3=O)[C@H](O)[C@@H]2O)[C@H](NCCCNC(=O)[C@@H](NC(=O)[C@@H](NC(=O)N[C@H](C(=O)O)C(C)C)[C@@H]2CCN=C(N)N2)[C@@H](O)C(C)C)C(=O)O)O[C@H](CN)[C@H]1O | microplate alamar blue | H37Rv | – | – | MIC90 | 1.6 ± 0.041 µg/mL |
| O=C(NC1CC1)c1cc(-c2ccoc2)ccc1OCCc1cccc(F)c1 | growth | H37Rv-LP | 120 h | – | IC90 | 4 ± 3.2 µM |
| CN1CCN(c2ccc(Nc3nccc(-c4ccc([N+](=O)[O-])cc4)n3)cc2C(F)(F)F)CC1 | – | H37Rv auxotrophic strain | – | – | MIC | 13.8 µg/mL |
| CC(N)(CO)C(=O)Nc1ccc(C(=O)Nc2ccnc(=O)[nH]2)cc1 (centres unmarked) | – | H37Ra | 100 µM | – | antimycobacterial activity | inactive |
| CC(=O)OCc1cc2[nH]c(=O)n(Cc3cccnc3)c(=O)c2cc1Cl | – | PptT conditional knockdown | – | – | MIC90 | 1 µM |
| CN1CCN(c2ccc(Nc3nccc(-c4cccc([N+](=O)[O-])c4)n3)cc2C(F)(F)F)CC1 | – | H37Rv auxotrophic strain | – | – | MIC | 26.4 µg/mL |
| COc1ccc(-c2cc(C(F)(F)F)c3c(N)c(C(=O)NC45CC(C4)C5)sc3n2)cc1 | – | H37Rv wild type | – | relative to: HepG2 IC50 over M. tuberculosis IC90 | selectivity index | < 1 |
| Cn1c(SCc2ccc(Cl)cc2)nnc1-c1cncc(C#Cc2ccccc2)c1 | bacterial growth | Erdman wild type | – | – | IC50 | 4 µM |
| NNC(=O)c1ccncc1 | – | THP-1 macrophages, H37Rv-GFP | 96 h | – | IC80 | 0.12 µM |
| Cc1c(-c2ccc(N3CCCCC3)cc2)[nH]c2ccccc2c1=O | bacterial growth | H37Rv | Wayne model, oxygen-limited | – | IC50 | 3.9 ± 0.52 µM |
| CC(=O)c1cc(-c2ccoc2)ccc1OCCc1cccc(F)c1 | – | H37Rv-LP | – | relative to: HepG2 CC50 over Mtb IC90 | selectivity index | 181 |
| CN1CCN(c2ccc(Nc3nccc(-c4cccnc4)n3)cc2C(F)(F)F)CC1 | – | H37Rv auxotrophic strain | – | – | MIC | > 51 µg/mL |
| O=c1c2cc(Cl)ccc2[nH]c(=S)n1C(CCc1ccccc1)c1cccnc1 (centres unmarked) | – | PptT conditional knockdown | – | – | MIC90 | > 100 µM |
| Cc1cccc(NC(=O)c2sc3nc(-c4ccccc4)cc(C(F)(F)F)c3c2N)c1C | growth inhibition | H37Rv LepB under-expressing | – | – | IC50 | > 100 µM |
| CNC(=O)c1sc(C)nc1OCCc1cc(F)cc(F)c1 | – | H37Rv-LP | – | relative to: HepG2 CC50 over Mtb IC90 | selectivity index | 4 |
